# Published values pooled from the literature.
# Every numbered part comes from another study and shows a few of its results, in no order.

# Sample 1
# Target: RING finger protein unkempt homolog, zinc fingers 1-6, SBP tag (UNK, Homo sapiens, UniProt Q9C0B0, residues 30-357)
# Sequence of UniProt Q9C0B0 (30-357, looked up): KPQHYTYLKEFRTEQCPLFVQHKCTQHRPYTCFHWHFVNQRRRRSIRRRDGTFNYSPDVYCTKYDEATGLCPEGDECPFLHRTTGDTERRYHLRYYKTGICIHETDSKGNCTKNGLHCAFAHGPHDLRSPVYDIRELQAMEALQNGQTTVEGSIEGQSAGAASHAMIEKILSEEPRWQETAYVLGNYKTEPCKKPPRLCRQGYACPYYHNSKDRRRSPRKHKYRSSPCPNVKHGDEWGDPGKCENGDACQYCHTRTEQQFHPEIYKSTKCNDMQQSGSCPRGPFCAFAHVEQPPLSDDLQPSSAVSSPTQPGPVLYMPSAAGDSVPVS
# Technique: RNA Bind-n-Seq
# Form: RNA
# Matrix: in vitro
# Tested at: 100 nM
# Notes: RNA with constant flanks, vertebrate orthologous sites, ends assumed
# Reference: input RNA pool
# Reading: higher = stronger binding
Oligonucleotide,bound/input enrichment [ratio]
GGGAGUUCUACAGUCCGACGAUCCGUUCCCUGCUCUUGGGUGCGACUGAACACGAAGCAUCUGCCAGCGCUACAAGGGCACCAUAGUAUUUUUUUUGCUGCCUCCGAGUCCCCACAGCCUUCAAAGAGAAGUGGUAGUAGAUUCAACAGAGGAUUGAGCAUCA,1.92
GGGAGUUCUACAGUCCGACGAUCUGGGUUAUUCCUAUUAUUAUCAAGUAGCUGGAAUUGUGAAGGUCGGAGUAGUUAGAUCUUUAGCUUUUAUUCCUUUUUUUUGUAUUACUAUCCAUGUGUAUAAAUUAUUGAUCAUGUUGCCAACAGAGGAUUGAGCAUCA,2.08
GGGAGUUCUACAGUCCGACGAUCGAUUUGGACCUUGGAGCUGAACCUGAGAGCUAGCAAAAGUGAAGCAGACUCGUAAAAUUAUAGCUGUGUGCAGCUGCACAGAACAGCUGCAUUAAAGUAUUUAUAAAGAGAAAUUUUCAGCAACAGAGGAUUGAGCAUCA,0.28

# Sample 2
# Target: Ras GTPase-activating protein-binding protein 1, C-terminal RGG region (G3BP1, Homo sapiens, UniProt Q13283)
# Sequence of UniProt Q13283 (whole entry, looked up): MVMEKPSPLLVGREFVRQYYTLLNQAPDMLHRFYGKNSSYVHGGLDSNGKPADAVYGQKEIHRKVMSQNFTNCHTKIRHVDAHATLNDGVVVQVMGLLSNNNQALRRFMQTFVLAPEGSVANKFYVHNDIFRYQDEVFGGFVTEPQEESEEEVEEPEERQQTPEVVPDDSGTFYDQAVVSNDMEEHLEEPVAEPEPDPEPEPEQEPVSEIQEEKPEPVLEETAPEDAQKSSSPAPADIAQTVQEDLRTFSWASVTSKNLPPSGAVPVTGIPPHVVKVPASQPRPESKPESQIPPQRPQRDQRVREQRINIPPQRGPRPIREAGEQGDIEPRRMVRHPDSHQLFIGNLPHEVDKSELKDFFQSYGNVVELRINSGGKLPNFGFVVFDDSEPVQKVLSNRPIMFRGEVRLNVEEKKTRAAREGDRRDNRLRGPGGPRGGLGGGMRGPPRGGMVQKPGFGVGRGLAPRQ
# Technique: RNA Bind-n-Seq
# Form: RNA
# Matrix: in vitro
# Tested at: 1 µM
# Notes: whole 134-nt RNA, ends assumed
# Together with: 150 mM KCl
# Reference: input library
# Reading: higher = stronger binding
Oligonucleotide,log2 enrichment
GGGAGUUCUACAGUCCGACGAUCACCAUGCAGGUGGGCAUCUUUGGGAAGUGUGGCAAGGGGGGGAUAGGGAGGGGGGUAACACUUUGGGAACAGGUGGUCCCAGGUCGUUUCUGGAAUUCUCGGGUGUCAAGG,-1.12
GGGAGUUCUACAGUCCGACGAUCGUCCUGUGCUACACAUCGUAUGUACCGAAUCAAAUUUUUAAAUUUUUAAACCCCCAAAAAAGUAUUAUGUUACGCCGUUCGGAUCUGCACUGGAAUUCUCGGGUGUCAAGG,-0.521
GGGAGUUCUACAGUCCGACGAUCCCUGUGCUACACAUCGUAUGUACCGAAUCGGGGAAAAAAAGGGGUUUUUUUGGGGAGGGGAAAGUAUUAUGUUACGCCGUUCGGAUCUGCUGGAAUUCUCGGGUGUCAAGG,0.767

# Sample 3
# Target: Interferon regulatory factor 5, full length, phosphomimetic (IRF5, Homo sapiens, UniProt Q13568-2, residues 1-514, K96S/S451D/S453D/S456D/S462D)
# Technique: protein-binding microarray
# Form: double-stranded DNA, one strand shown
# Matrix: in vitro
# Tested at: 250 nM
# Notes: 60-bp whole probe
# Together with: salmon DNA 0.4 mg/ml
# Reference: random background probes
# Reading: higher = stronger binding
# Constant ends, left off below: GCCTAGCAC … GTCTTGATTCGCTTGACGCTGCTG
Oligonucleotide,log fluorescence
GACGGTCTCCTTATCCTTACGTGCTAG,0.0236 z-score
GGTTTTCTCTATTGCTTTCTGTGCTAG,3.35 z-score
TTAGAACGGGGGTTTCGATTAGTGCTA,7.21 z-score
AGTGGAGTTCATTGTCATTTGTGCTAG,0.337 z-score
GGGCACGTTGTTTAACTTCTGTGCTAG,-0.592 z-score
CTGGTCCTCCTGACTGGGGTGGTGCTA,-0.281 z-score

# Single results of other studies
Substance,target,assay,test system,conditions,scale,measurement,value
"PhoQ, residues 284 288 289 292 302 303 NLSRDF","PhoP, residues 12 14 15 18 19 VHSCL (Escherichia coli, UniProt P23836)","Sort-seq, item: YFP reporter",E. coli,"PhoQ-PhoP variant library, together with: 10 µM Mg2+","reference: high Mg2+ state, higher = stronger signaling",fold induction,7.06
